Measurements gathered from unrelated publications.
Protocols differ between the studies behind these lines. ± gives the spread as reported.

Structure (SMILES)	cell line	test	setting	how to read	measurement	value
O=C1C(Cl)=C(NCCN2CCOCC2)C(=O)c2ncccc21	HEK-293T	H4K20me1 depletion, inhibitor, western blot	sustained 3 days		effective single dose	5 µM
O=C1Nc2ccccc2/C1=N\Nc1nnc2n1N=C(c1ccc(Cl)cc1)CS2	Hs-578T	cell growth or viability, SRB	10 µM		inhibition	14%
COC(=O)c1ccccc1-c1c2ccc(=O)cc-2oc2cc(OCCCCC[P+](c3ccc(C)cc3)(c3ccc(C)cc3)c3ccc(C)cc3)ccc12	HeLa cells	confocal microscopy	with: MitoTracker Deep Red		Pearson coefficient	0.856 ± 0.021
CCc1cccc(CC)c1NC(=O)c1nn(C)c2c1CCc1cnc(Nc3ccc(N4CCN(C)CC4)cc3OC)nc1-2	HeLa I598F	cell proliferation		reference: HeLa I598F over parental HeLa	IC50 ratio	2.6
O=C(N[C@@H](Cc1coc2ccccc12)B(O)O)[C@@H]1C[C@H]2CC[C@@H]1O2	MM1.S	Caspase-Glo	concentration not given, 72 h		caspase-3/7 activity	> 3.5 fold
COc1cc(CNC(=O)C[C@H](C)CCC=C(C)C)ccc1OCc1cn(-c2ccc(C#N)cc2)nn1	U-251 CNS cancer cells	SRB	10 µM, 48 h		growth percent	83.9%
O=C1/C(=C/c2ccc(O)c(O)c2)Oc2c1c(O)cc(O)c2-c1ccc(O)c(O)c1	L02	MTT	10 µM, 2 h, with: H2O2 100 µM	reference: untreated	viability	78.1%
Cc1cc(N)c2ccccc2[n+]1CCCCCCCCCCCCCC[n+]1c(C)cc(N)c2ccccc21	NB12 neuroblastoma tumour-initiating cells	alamarBlue	concentration not given, primary screen		viability decrease	74%
O=C1C(=NN=c2[nH]ccs2)c2cc(Cl)ccc2N1CCn1ncc2c(=O)[nH]cnc21	BALB/3T3 and MDA-MB-231	cell growth		reference: IC50 BALB/3T3 over MDA-MB-231	selectivity ratio	1.25
COc1cc(CNC(=O)C[C@H](C)CCC=C(C)C)ccc1OCc1cn(-c2ccccc2[N+](=O)[O-])nn1	RPMI-8226 leukaemia cells	SRB	10 µM, 48 h		growth percent	39.9%
CC(C)Cc1ccc(C(C)C(=O)[O][Pt]([NH2])([NH2])([Cl])([Cl])[O]C(=O)C(Cl)Cl)cc1 (stereo not drawn)	six human cancer cell lines	MTT		reference: oxaliplatin over compound	mean IC50 ratio	~8
FC(F)(F)c1ccnc(-c2cc(C(F)(F)F)ccn2)c1.FC(F)(F)c1ccnc(-c2cc(C(F)(F)F)ccn2)c1.[Cl-].[Cl-].[Ru+2].c1csc(-c2ccc(-c3ccc(-c4ccc(-c5nc6c7cccnc7c7ncccc7c6[nH]5)s4)s3)s2)c1	SK-MEL-28	cell growth or viability, resazurin	dark		EC50	100 µM
COc1ccc([C@@H]2CC(=O)c3c(O)cc(O[C@@H]4O[C@H](CO[C@@H]5O[C@@H](C)[C@H](O)[C@@H](O)[C@H]5O)[C@@H](O)[C@H](O)[C@H]4O)cc3O2)cc1O	A549	cell growth or viability, MTS	50 µg/mL, 24 h		viability	86.4%
C[n+]1cc(NC(=O)c2ccc3ccc4ccc(C(=O)Nc5cc6ccccc6[n+](C)c5)nc4c3n2)cc2ccccc21	MRC5	cell growth or viability, ATP luminescence	96 h		GI50	34.8 µM
COc1cc(CNC(=O)C[C@H](C)CCC=C(C)C)ccc1O	RPMI-8226 leukaemia cells	SRB	10 µM, 48 h		growth percent	84.4%
CC(=C(c1ccc(O)cc1)c1ccc(Cl)cc1)c1ccc(Cl)cc1	SF-539	cell growth or viability, SRB			GI50	0.6 µM
CN1CCN(C(=O)N(CCCCCCC(=O)NO)c2ccc(-c3ccc4cnn(C)c4c3)cc2)CC1	MM1.S	immunoblot, item: tubulin	30 to 1000 nM, 6 h		acetylation	increased
COc1cc(/C=C/C(=O)O)ccc1O	BV-2	ELISA	5 µM, with: LPS 1.0 µg/mL		TNF-α level	539 pg/mL
CC[C@@]12CCc3c(c4ccccc4n3C)CCN(C[C@H](O)[C@H]1O)C2	BV-2	NO production	6 µM, 1 h, 24 h stimulation, with: LPS 800 ng/mL	reference: LPS control	inhibition	54.1 ± 4.3%
C(=C/c1ccccc1)/c1ccccc1	CCRF-CEM	cell proliferation, CellTiter-Glo	24 h	reference: vehicle	lowest effective concentration	10 µM

Structure (SMILES)	cell line	test	setting	how to read	measurement	value
COc1ccc2cc3[n+](cc2c1OCc1cn(Cc2ccc(C(C)(C)C)cc2)nn1)CCc1cc2c(cc1-3)OCO2.[Cl-]	SMMC-7721	cell growth, MTT	7.8 µM		inhibition	> 50%
CC(=O)N[C@H](C(=O)N[C@H](C(=O)N[C@@H](CCCNC(=N)N)C(=O)N1Cc2ccccc2C[C@H]1C(=O)N[C@@H](Cc1ccccc1)C(N)=O)C1CCCCC1)C(C)C	MBP-specific BC-3 T cells	Bio-Plex multiplex, item: MCP-l(MCAF)	200 µg/mL, 24 h, with: MBP87-99 antigen		cytokine level	2000 ± 1080 pg/mL
COc1cc(CNC(=O)C[C@H](C)CCC=C(C)C)ccc1OCc1cn(-c2cccc(C(F)(F)F)c2)nn1	RPMI-8226 leukaemia cells	SRB	10 µM, 48 h		growth percent	89.8%
COc1cc2c(C=C3C(=O)Nc4ccccc43)c[nH]c2cc1C	melanoma subpanel of NCI-60		48 h		TGI	7.41 µM
CC(=O)OC[C@H]1O[C@@H](Sc2sc(C(=O)c3ccc(Br)cc3)c(N)c2-c2nc3ccccc3s2)[C@H](OC(C)=O)[C@@H](OC(C)=O)[C@@H]1OC(C)=O	IGROV-1	SRB	10 µM, 48 h	reference: untreated	growth	45.6%
O=C(CN1CCC(NC(=O)CSc2ccc(Cl)cc2)CC1)Nc1ccccc1	HEK293 NRF2 luciferase reporter	NRF2 reporter gene, activator	18 h	reference: control	lowest active concentration	10 µM
Cn1ncc2cc(-c3cncc(Cl)c3N3CCC4(CCNC4=O)CC3)ccc21	LS174T	TCF/LEF luciferase reporter, inhibitor	WNT pathway		IC90	0.715 µM
COc1cc(CNC(=O)C[C@H](C)CCC=C(C)C)ccc1OCc1cn(-c2cccc([N+](=O)[O-])c2)nn1	CCRF-CEM	SRB	10 µM, 48 h		growth	85.6%
N#Cc1cnc2cc(OCC3CCNCC3)c(F)cc2c1Nc1cc(F)c(OCc2cccc(Cl)n2)cc1Cl	INS-1E	western blot	concentration not given, pretreatment, with: thapsigargin		MST1 and caspase activation	decreased
CC(C)CC(CC(C)C)NC(=O)[C@H](Cc1c[nH]cn1)NC(=O)CNC(=O)[C@@H](NC(=O)[C@H](C)NC(=O)[C@H](Cc1c[nH]c2ccccc12)NC(=O)[C@H](CCC(N)=O)NC(=O)[C@@H](Cc1ccccc1)NC(=O)COCC(=O)Nc1ccc(CNC(=O)CN2CCN(CC(=O)O)CCN(CC(=O)O)CCN(CC(=O)O)CC2)cc1)C(C)C [lutetium-177 labelled]	PC-3, docetaxel pretreated	SRB assay after 6 days	50 MBq, 1 h, 37 °C	reference: medium-treated	cell density	81.2 ± 12.6%
CCCCCCCCN(CCC(=O)Nc1ccccc1)C(=O)c1ccccn1	HGPS fibroblasts	immunofluorescence	2 µM, 408 h	reference: vehicle	progerin mislocalisation	~36%
CCC(=C(c1ccc(Cl)cc1)c1ccc(OCCCN(C)C)cc1)c1ccc(OC)cc1	SK-MEL-2	cell growth or viability, SRB			GI50	8.01 µM
Cc1ccc2c(n1)c1nc(C)ccc1c1nc3cc4ccccc4cc3nc21.[Ru+2].c1ccc(-c2cccc(-c3ccccn3)n2)nc1.c1ccncc1	M2 murine macrophages			reference: dark EC50 over light EC50	phototherapeutic index	> 45
O=C1NCC(Cc2ccccc2)N(CC2CCCN2CC(CC2CCCCC2)N2CC(Cc3ccc(O)cc3)N(CCc3ccccc3)C(=O)C2=O)C1=O (stereo not drawn)	WM 266-4	MAPK and PI3K activation, flow cytometry	concentration not given, 48 h	reference: untreated	decrease in dual-activated cells	~20%
C=C(C)[C@@H]1CC[C@]2(C(=O)OCO/N=[N+](\[O-])N3CCCC3)CC[C@]3(C)[C@H](CC[C@@H]4[C@@]5(C)CC[C@H](OC(C)=O)C(C)(C)[C@@H]5CC[C@]43C)[C@@H]12	B16-F10	Annexin V/PI flow cytometry	0.50 µM, 36 h		late apoptotic cells	4.47%
COc1cc(CNC(=O)C[C@H](C)CCC=C(C)C)ccc1OCc1cn(-c2ccc(Br)cc2)nn1	U-251 CNS cancer cells	SRB	10 µM, 48 h		growth percent	63.4%
O=Cc1c(O)ccc2ccccc12	HUVEC	RNA sequencing, item: BMP2	75 µM, 24 h	reference: DMSO	log2 fold change	3.05
COc1cc(CNC(=O)C[C@H](C)CCC=C(C)C)ccc1OCc1cn(-c2ccc(Cl)cc2Cl)nn1	SK-MEL-2 melanoma cells	SRB	10 µM, 48 h		growth percent	71.7%
C=C(CC)C(=O)c1ccc(OCC(=O)NCCNC(=O)COc2ccc(C(=O)C(=C)CC)c(Cl)c2Cl)c(Cl)c1Cl	A549/DDP cisplatin-resistant		2.0 µM, with: cisplatin 2 µM	reference: compound alone corrected	apoptosis increase	~4 fold

A few entries again:
Structure (SMILES)	cell line	test	setting	how to read	measurement	value
Cc1cc(N)c2ccccc2[n+]1CCCCCCCCCCCCCC[n+]1c(C)cc(N)c2ccccc21	NB12 neuroblastoma tumour-initiating cells	alamarBlue	concentration not given, primary screen		viability decrease	74%
O=C(CN1CCC(NC(=O)CSc2ccc(Cl)cc2)CC1)Nc1ccccc1	HEK293 NRF2 luciferase reporter	NRF2 reporter gene, activator	18 h	reference: control	lowest active concentration	10 µM
C=C(CC)C(=O)c1ccc(OCC(=O)NCCNC(=O)COc2ccc(C(=O)C(=C)CC)c(Cl)c2Cl)c(Cl)c1Cl	A549/DDP cisplatin-resistant		2.0 µM, with: cisplatin 2 µM	reference: compound alone corrected	apoptosis increase	~4 fold
O=C1Nc2ccccc2/C1=N\Nc1nnc2n1N=C(c1ccc(Cl)cc1)CS2	Hs-578T	cell growth or viability, SRB	10 µM		inhibition	14%
CCC(=C(c1ccc(Cl)cc1)c1ccc(OCCCN(C)C)cc1)c1ccc(OC)cc1	SK-MEL-2	cell growth or viability, SRB			GI50	8.01 µM
